Experimental data from different studies.
A part holds a random share of what one study measured.

Block 1
Target: Histone acetyltransferase KAT6A, winged helix 1, GST fusion (KAT6A, Homo sapiens, UniProt Q92794, residues 1-85)
Method: protein binding microarray
Molecule type: double-stranded DNA, one strand shown
Medium: in vitro
Concentration: not given
Setting: 8-mer, flanks averaged, mean of 2 arrays, mostly near background
Reference: not given
Reading: higher = stronger binding
Target sequence (chain): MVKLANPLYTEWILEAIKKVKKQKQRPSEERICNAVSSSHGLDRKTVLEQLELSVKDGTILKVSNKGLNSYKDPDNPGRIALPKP
Strand | E-score
AGGCTTGC | -0.08
TATTACAA | -0.0664
GCGCTCCC | 0.33
GGGCTGTA | -0.147
CCCAATCC | -0.138

Block 2
Target: Ras GTPase-activating protein-binding protein 1, C-terminal RGG region (G3BP1, Homo sapiens, UniProt Q13283)
Chain of UniProt Q13283 (whole entry, looked up): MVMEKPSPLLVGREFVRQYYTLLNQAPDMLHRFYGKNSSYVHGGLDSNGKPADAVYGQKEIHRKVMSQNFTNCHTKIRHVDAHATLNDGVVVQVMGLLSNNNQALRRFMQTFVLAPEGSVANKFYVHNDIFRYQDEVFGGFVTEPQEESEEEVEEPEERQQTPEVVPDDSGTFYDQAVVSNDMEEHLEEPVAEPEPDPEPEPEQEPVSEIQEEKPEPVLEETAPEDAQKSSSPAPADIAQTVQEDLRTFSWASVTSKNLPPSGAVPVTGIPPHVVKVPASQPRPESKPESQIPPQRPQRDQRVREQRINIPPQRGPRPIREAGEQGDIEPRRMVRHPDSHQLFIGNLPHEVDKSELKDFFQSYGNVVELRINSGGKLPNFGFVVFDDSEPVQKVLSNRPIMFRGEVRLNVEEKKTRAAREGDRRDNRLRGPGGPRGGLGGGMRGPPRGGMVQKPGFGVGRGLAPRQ
Method: RNA Bind-n-Seq
Molecule type: RNA
Medium: in vitro
Concentration: 1 µM
Setting: whole 134-nt RNA, ends assumed
Together with: 150 mM KCl
Reference: input library
Reading: higher = stronger binding
Shared flanks, not repeated: GGGAGUUCUACAGUCCGACGAUC … UGGAAUUCUCGGGUGUCAAGG
Strand | log2 enrichment
CUCAAGUCCUGUGCUACACAUCGUAUGUACCGAAUCGGGAGGGUGGGUUUGGGAAAGUAUUAUGUUACGCCGUUCGGAUCUGCACUUCCA | 1.89
CCUGUGCUACACAUCGUAUGUACCGAAUCGGGGCCCCCCGGCCCCCCGGGCCCCCCGGGGAAAGUAUUAUGUUACGCCGUUCGGAUCUGC | -1.48
AAGUCCUGUGCUACACAUCGUAUGUACCGAAUCGGAAAAGGGAAAAGGGGAAAAGGAAAGUAUUAUGUUACGCCGUUCGGAUCUGCACUU | -1.61
UUGUUUAGCAAUCAAGGAGACCGCGAAGGCGUACAUUCCCGGGUGUUGCUUCCAGGAGAAACCCUGAACGGAGAGCUCGUCCUCUUACCA | -0.522
UUCAUUCUUACUUUGAAUCUAGGAUUUUAUGGAAGACCUUGGGUUAUGGAACAGAGAAAAGAACUCUUUAGAAGGUAAAUCUUCAUUAUA | -2.29

Block 3
Target: Interferon regulatory factor 7, full length, phosphomimetic (IRF7, Homo sapiens, UniProt Q92985, residues 1-503, S471D/S472D/S475D/S476D/S477D/S483D/S484D/S487D)
Method: protein-binding microarray
Molecule type: double-stranded DNA, one strand shown
Medium: in vitro
Concentration: 2200 nM top
Setting: 60-bp whole probe
Together with: salmon DNA 0.4 mg/ml
Reference: random background probes
Reading: higher = stronger binding
Shared flanks, not repeated: GCCTAGCAC … GTCTTGATTCGCTTGACGCTGCTG
Residues (chain): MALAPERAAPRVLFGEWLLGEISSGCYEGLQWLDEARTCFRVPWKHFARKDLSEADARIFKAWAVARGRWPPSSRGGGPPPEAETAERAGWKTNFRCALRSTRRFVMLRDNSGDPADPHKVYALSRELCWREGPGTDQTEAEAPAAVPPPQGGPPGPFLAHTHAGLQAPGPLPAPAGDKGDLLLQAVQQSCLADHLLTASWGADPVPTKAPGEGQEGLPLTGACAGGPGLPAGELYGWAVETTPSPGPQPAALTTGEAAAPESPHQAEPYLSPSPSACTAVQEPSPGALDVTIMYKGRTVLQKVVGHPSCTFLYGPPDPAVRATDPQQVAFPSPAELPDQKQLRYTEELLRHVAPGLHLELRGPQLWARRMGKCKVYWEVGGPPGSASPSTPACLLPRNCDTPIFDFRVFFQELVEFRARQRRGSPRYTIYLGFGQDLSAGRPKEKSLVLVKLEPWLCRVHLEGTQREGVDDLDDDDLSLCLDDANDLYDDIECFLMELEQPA
Strand | fitted relative affinity
CGTCATTTCACAGTTAACCAGTGCTAG | 1.31 z-score
GACGGACTGCTTATCCCGACGTGCTAG | 0.287 z-score
GACGGCCTCGGTATCGGGACGTGCTAG | -0.605 z-score
TTACGACTGGACTTTCGGTTAGTGCTA | 5.42 z-score
AAAATTTTGCTTCTAGAACAGTGCTAG | 0.0576 z-score
TTAGGTTTCCACACTGGGTTAGTGCTA | 0.966 z-score

Single results of other studies
Molecule | target | assay | test system | setting | scale | quantity | result
PhoQ, residues 284 288 289 292 302 303 SLANIV | PhoP, residues 12 14 15 18 19 VQGLL (Escherichia coli, UniProt P23836) | Sort-seq, item: YFP reporter | E. coli | PhoQ-PhoP variant library, together with: 10 µM Mg2+ | reference: high Mg2+ state, higher = stronger signaling | fold induction | 16
